# Measured values pooled from the literature.
# Numbered parts are unrelated; each lists some results of a single study. Values joined by “and” are separate records of one study, mostly repeats; a detail may differ. Substitutions count along the parent as printed.
# Sequence of UniProt Q5XXA6 (whole entry, unmodified, looked up): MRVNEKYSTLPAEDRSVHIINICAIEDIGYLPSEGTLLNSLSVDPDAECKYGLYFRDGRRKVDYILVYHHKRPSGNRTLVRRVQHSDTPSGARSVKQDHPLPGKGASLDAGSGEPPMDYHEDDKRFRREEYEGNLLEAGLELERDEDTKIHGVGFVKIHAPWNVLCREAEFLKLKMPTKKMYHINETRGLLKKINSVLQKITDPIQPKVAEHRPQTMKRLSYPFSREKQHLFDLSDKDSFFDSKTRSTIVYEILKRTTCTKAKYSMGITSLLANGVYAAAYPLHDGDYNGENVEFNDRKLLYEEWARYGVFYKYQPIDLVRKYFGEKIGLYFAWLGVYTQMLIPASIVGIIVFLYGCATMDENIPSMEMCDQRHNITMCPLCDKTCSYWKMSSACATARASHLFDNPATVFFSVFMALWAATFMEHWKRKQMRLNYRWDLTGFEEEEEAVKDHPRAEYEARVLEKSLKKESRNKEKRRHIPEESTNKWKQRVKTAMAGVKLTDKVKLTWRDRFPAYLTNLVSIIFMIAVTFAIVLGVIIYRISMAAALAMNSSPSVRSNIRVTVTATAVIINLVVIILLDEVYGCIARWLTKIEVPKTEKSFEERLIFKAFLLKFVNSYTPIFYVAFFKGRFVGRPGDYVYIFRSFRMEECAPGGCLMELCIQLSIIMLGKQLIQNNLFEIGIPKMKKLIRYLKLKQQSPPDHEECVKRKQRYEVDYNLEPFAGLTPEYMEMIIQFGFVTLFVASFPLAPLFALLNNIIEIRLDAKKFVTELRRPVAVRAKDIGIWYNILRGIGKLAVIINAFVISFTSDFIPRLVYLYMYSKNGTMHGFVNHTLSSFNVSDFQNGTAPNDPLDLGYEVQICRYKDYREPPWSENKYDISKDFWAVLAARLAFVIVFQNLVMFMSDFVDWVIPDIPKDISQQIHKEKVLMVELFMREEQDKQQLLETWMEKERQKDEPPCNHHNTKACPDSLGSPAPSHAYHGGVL
# Sequence of UniProt P51812 (whole entry, looked up): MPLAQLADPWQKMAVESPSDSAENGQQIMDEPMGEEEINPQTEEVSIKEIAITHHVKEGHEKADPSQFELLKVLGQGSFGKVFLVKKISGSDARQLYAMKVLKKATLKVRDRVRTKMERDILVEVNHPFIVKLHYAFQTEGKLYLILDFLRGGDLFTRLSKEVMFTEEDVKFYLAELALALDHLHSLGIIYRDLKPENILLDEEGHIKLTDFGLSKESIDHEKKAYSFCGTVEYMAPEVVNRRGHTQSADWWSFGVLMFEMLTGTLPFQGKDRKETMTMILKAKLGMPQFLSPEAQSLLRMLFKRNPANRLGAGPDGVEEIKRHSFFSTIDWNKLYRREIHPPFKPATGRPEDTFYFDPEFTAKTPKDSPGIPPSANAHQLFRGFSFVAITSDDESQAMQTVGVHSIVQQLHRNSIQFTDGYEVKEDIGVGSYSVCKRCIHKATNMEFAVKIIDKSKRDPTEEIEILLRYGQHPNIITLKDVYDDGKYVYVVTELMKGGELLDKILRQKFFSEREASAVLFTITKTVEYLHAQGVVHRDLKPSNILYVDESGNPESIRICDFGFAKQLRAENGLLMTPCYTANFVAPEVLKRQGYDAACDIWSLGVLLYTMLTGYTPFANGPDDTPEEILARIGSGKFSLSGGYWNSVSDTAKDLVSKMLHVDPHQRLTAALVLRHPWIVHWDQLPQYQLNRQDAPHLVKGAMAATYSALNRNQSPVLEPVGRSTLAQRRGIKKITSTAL
# Sequence of UniProt P17948 (whole entry, looked up): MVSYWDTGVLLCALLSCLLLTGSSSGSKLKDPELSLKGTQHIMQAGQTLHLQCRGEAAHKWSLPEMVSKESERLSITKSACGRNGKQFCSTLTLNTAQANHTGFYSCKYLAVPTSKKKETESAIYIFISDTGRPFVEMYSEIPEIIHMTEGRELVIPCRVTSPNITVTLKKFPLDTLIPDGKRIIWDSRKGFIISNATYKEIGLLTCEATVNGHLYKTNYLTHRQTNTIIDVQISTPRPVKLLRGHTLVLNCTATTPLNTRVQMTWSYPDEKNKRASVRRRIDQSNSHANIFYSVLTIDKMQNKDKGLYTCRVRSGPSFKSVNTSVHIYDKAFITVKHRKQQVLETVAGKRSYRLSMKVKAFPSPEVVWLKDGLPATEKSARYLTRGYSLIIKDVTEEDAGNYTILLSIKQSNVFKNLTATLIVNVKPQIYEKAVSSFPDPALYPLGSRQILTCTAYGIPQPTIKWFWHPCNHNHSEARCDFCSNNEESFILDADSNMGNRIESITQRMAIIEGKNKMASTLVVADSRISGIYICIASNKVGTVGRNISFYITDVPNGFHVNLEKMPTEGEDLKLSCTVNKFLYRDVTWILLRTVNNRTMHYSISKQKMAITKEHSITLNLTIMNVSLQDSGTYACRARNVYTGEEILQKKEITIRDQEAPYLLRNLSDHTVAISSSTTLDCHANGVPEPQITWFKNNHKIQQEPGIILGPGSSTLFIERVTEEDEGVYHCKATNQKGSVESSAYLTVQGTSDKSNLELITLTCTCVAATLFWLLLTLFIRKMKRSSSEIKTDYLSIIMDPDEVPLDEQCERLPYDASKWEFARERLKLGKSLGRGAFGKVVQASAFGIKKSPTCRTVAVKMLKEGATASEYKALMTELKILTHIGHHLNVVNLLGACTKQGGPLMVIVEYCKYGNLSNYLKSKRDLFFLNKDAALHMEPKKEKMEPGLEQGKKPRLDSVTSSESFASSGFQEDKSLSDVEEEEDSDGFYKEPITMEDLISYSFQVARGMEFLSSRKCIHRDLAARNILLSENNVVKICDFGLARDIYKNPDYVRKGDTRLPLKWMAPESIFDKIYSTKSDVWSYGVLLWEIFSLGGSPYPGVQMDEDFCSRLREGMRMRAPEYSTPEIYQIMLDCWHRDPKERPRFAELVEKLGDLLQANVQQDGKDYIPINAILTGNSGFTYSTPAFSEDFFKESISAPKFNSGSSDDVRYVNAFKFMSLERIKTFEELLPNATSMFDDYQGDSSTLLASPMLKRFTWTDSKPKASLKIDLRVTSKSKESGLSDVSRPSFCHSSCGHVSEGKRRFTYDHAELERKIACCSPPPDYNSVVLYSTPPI
# Sequence of UniProt Q13237 (whole entry, looked up): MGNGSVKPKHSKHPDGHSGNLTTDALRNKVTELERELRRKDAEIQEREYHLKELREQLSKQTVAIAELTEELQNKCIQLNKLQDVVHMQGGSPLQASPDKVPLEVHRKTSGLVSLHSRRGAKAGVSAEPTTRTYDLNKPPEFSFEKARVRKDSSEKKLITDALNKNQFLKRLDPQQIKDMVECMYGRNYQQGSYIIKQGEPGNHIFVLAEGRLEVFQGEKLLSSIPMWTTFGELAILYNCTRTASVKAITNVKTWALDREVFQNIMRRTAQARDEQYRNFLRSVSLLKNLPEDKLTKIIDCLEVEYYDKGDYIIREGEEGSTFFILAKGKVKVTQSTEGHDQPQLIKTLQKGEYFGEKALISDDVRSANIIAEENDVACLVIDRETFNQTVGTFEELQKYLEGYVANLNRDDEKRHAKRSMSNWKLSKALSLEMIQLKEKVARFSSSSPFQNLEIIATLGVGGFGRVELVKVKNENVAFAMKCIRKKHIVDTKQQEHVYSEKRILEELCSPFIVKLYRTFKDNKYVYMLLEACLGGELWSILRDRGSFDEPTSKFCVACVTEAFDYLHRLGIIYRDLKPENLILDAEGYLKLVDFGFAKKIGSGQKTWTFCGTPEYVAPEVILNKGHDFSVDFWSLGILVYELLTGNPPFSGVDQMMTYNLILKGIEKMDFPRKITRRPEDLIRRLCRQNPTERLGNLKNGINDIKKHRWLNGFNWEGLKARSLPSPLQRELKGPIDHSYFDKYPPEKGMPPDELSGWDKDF
# Sequence of UniProt Q9HBY8 (whole entry, looked up): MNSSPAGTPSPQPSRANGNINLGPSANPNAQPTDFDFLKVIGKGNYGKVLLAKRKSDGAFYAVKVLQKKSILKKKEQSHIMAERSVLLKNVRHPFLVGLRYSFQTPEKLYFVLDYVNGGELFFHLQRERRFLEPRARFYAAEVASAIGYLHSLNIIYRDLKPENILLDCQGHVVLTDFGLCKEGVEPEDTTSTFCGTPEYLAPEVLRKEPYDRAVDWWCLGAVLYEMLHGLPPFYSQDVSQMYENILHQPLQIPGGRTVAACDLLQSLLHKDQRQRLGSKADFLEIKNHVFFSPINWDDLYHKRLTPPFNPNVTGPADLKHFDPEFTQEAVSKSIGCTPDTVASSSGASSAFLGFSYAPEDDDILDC
# Sequence of UniProt Q16832 (whole entry, looked up): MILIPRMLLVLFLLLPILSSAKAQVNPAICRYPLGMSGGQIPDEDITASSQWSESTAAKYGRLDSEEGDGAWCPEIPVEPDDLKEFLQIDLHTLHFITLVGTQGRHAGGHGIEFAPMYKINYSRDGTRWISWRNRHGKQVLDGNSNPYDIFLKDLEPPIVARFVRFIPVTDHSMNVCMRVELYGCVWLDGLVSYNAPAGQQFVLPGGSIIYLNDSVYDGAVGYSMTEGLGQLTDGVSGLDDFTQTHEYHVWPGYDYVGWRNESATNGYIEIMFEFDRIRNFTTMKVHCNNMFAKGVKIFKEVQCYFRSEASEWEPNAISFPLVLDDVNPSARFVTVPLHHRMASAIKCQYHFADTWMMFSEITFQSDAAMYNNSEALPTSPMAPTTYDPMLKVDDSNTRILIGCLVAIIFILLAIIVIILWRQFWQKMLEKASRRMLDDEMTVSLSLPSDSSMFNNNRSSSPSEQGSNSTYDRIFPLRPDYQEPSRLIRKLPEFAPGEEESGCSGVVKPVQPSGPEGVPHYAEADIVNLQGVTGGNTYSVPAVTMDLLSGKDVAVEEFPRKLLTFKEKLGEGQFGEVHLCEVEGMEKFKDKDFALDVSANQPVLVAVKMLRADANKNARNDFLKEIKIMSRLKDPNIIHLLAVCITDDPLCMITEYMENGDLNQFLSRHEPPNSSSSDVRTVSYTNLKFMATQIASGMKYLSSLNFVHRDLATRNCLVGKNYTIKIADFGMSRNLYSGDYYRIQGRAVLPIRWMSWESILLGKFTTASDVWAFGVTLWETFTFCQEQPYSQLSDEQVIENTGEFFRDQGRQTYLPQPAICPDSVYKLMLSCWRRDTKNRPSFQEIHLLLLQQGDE

# Series 1
# Structure (SMILES): COc1ccc2c(O[C@@H]3C[C@H]4C(=O)N[C@]5(C(=O)O)CC5/C=C\CCCCC[C@H](NC(=O)OC5CCCC5)C(=O)N4C3)cc(-c3csc(NC(=O)C(C)C)n3)nc2c1C (stereo partly drawn)
# Observed: cell-free assay
# Method: competition with immobilised ligand
# Tested at: 1 µM
target,remaining binding [%]
"SGK2 (Homo sapiens, UniProt Q9HBY8)",87
"PRKG2 (Homo sapiens, UniProt Q13237)",84
"IKBKE (Homo sapiens, UniProt Q14164)",82
"Ribosomal protein S6 kinase alpha-3, C-terminal kinase domain (RPS6KA3, Homo sapiens, UniProt P51812)",82
"LTK (Homo sapiens, UniProt P29376)",100
"DDR2 (Homo sapiens, UniProt Q16832)",88
"STK38L (Homo sapiens, UniProt Q9Y2H1)",43
"WNK4 (Homo sapiens, UniProt Q96J92)",91
"STK32A (Homo sapiens, UniProt Q8WU08)",78
"MKNK1 (Homo sapiens, UniProt Q9BUB5)",79
"Aurora kinase A (AURKA, Homo sapiens, UniProt O14965)",69
"FLT1 (Homo sapiens, UniProt P17948)",95

# Series 2
# Cell line: HaCaT
# Tested at: 100 µM
# Time: 18 h
SMILES,viability
CNC(=O)c1cc(Oc2ccc(NC(=O)Nc3ccc(Cl)c(C(F)(F)F)c3)c(F)c2)ccn1,51.5%
O=C1[C@H](CC[C@H](O)c2ccc(F)cc2)[C@@H](c2ccc(O)cc2)N1c1ccc(F)cc1,19.4%
O=c1ccc2cc3ccoc3cc2o1,98.3%

# Series 3
# Target: CCNE1, cyclin fold, Cln2 fusion (human)
# Method: yeast growth competition, sequencing
# Matrix: yeast
# Setting: weak parent motif
# Baseline: not given
# Direction: higher = stronger binding
# Starting sequence: SAMHD1 docking peptide (human); ASKSRVQLFKDDP
Change,normalised enrichment score
ASKSRVQLFKDEP [D12E],0.446
ASKSRVQLFKDAP [D12A],0.38
ASKERVQLFKDDP [S4E],-0.155
ASKSRVQLFKDRP [D12R],0.128
ASKSRVQLFKDVP [D12V],0.294
ASKSRDQLFKDDP [V6D],-0.209
ASKSRVQLFKDLP [D12L],0.0649
ASGSRVQLFKDDP [K3G],0.378

# Series 4
# SMILES: C=CCc1ccc(O)c(-c2cc(CC=C)ccc2O)c1
# Observed: chloride current
# Method: whole-cell voltage clamp
target,action,setting,IC50
"Anoctamin-1 (ANO1, Homo sapiens, UniProt Q5XXA6, del476-501/M544V)",inhibitor,mutant M518V,171 µM
"Anoctamin-1 (ANO1, Homo sapiens, UniProt Q5XXA6, del476-501/E649D)",inhibitor,E623D mutant at -100 mV,94.1 µM
"Anoctamin-1 (ANO1, Homo sapiens, UniProt Q5XXA6, del476-501/E650A)",,membrane voltage -80 mV,29.3 µM

# Single results of other studies
Compound,cell line,method,tested at,time,baseline,quantity,result
COc1ccc(Oc2cc(NCCC(F)(F)F)c3ncc(-c4ccc(C(=O)NC5CC5)c(C)c4)n3n2)c(F)c1F,NCI-H1048,Vi-Cell,1.5 nM,3 d,DMSO,cell count,0.93 and 0.909

# Repeated from above (series 3):
Change,normalised enrichment score
ASKERVQLFKDDP [S4E],-0.155
